Measured values collected from several papers.
Protocols differ between the studies behind these lines. Several values in a cell are separate wells, animals, samples, runs or records. ± marks the error that the study gave.

Under “UPDRS I-IV score”, `Cc1cn(-c2cc(NC(=O)c3ccc(C)c(Nc4nccc(-c5cccnc5)n4)c3)cc(C(F)(F)F)c2)cn1` is recorded as 124 and 74 (human; 150 mg, week 36 follow-up; direction not given).
For `O=C(N[C@H]1CCCC[C@@H]1O)[C@H]1CN(Cc2ccc(-n3cccn3)cc2)c2ccccc2O1`, “minimum effective dose” read 1 mg/kg (reversal of fear conditioning deficit, contextual fear conditioning; rat; together with: risperidone 3 mg/kg).
`CS/C(S)=N/CCCC[S+](C)[O-]` (racemic): “mRNA fold change” 6.82 (RT-PCR, measured: Gckr; rat, colon; oral gavage, 200 mg/kg, 96 h, dosed for four days; reference: vehicle).
The NMSS score of `Cc1ccc(NC(=O)c2ccc(CN3CCN(C)CC3)cc2)cc1Nc1nccc(-c2cncc(-c3oncc3C)c2)n1` is reported as 28.3 ± 19.5 (mild-to-moderate Parkinson's disease patients; oral, 50 mg once daily, day 7, on anti-Parkinson medication; direction not given).
Under “triple cytokine producers”, `SIYNFEKL` is recorded as 47% (flow cytometry, measured: CD44hi CD8+ T cells; peptide, OT-I CD8+ T cells, mouse; 1 µg/mL loading, primed 5 days, restimulated 100 ng/mL OVA257, together with: no TGF-β1).
For `cotadutide`, “change in average glucose” read 2.3 mmol/L (measured: CGM blood glucose; human, type 2 diabetes, CKD; subcutaneous, 50 to 300 µg once daily; reference: baseline).
For `Cc1nc(-c2ccc(OCC(C)C)c(C#N)c2)sc1C(=O)O`, “serum uric acid change” read -58.8% (healthy humans; 80 mg once daily, day 7, fasted, multiple ascending dose; reference: baseline).
The cytokine-negative cells of `SIIVFEKL` is reported as 19.3% (flow cytometry, measured: CD44hi CD8+ T cells; peptide, OT-I CD8+ T cells, mouse; dose not given, primed 5 days, restimulated 100 ng/mL OVA257, together with: no TGF-β1).
Under “change in CDAI”, `CC[C@H](C)[C@H](NC(=O)[C@H](CCC(N)=O)NC(=O)[C@H](Cc1c[nH]cn1)NC(=O)[C@H](C)NC(=O)[C@H](CC(C)C)NC(=O)[C@H](CCCCN)NC(=O)[C@H](CCC(N)=O)NC(=O)[C@@H](NC(=O)[C@@H](NC(=O)[C@@H]1CSSC[C@H](NC(=O)CNC(=O)[C@H](Cc2ccccc2)NC(=O)[C@H](CO)NC(=O)[C@H](CCCNC(=N)N)NC(=O)[C@H](CC(C)C)NC(=O)CNC(=O)[C@H](CCC(N)=O)NC(=O)[C@H](Cc2ccccc2)NC(=O)[C@H](CC(N)=O)NC(=O)[C@H](CC(N)=O)NC(=O)[C@H](CCSC)NC(=O)[C@H](CO)NC(=O)[C@H](CCC(N)=O)NC(=O)[C@H](CCCNC(=N)N)NC(=O)[C@@H](N)Cc2ccc(O)cc2)C(=O)N[C@@H](CCCNC(=N)N)C(=O)N[C@@H](Cc2ccccc2)C(=O)NCC(=O)N[C@@H]([C@@H](C)O)C(=O)N1)[C@@H](C)O)C(C)C)C(=O)N[C@@H](Cc1ccc(O)cc1)C(=O)N[C@@H](CCC(N)=O)C(=O)N[C@@H](Cc1ccccc1)C(=O)N[C@H](C(=O)N[C@@H](CC(=O)O)C(=O)N[C@@H](CCCCN)C(=O)N[C@@H](CC(=O)O)C(=O)N[C@@H](CCCCN)C(=O)N[C@@H](CC(=O)O)C(=O)N[C@@H](CC(N)=O)C(=O)N[C@H](C(=O)N[C@@H](C)C(=O)N1CCC[C@H]1C(=O)N[C@@H](CCCNC(=N)N)C(=O)N[C@@H](CO)C(=O)N[C@@H](CCCCN)C(=O)N[C@H](C(=O)N[C@@H](CO)C(=O)N1CCC[C@H]1C(=O)N[C@@H](CCC(N)=O)C(=O)NCC(=O)N[C@@H](Cc1ccc(O)cc1)C(N)=O)[C@@H](C)CC)C(C)C)[C@@H](C)O` is recorded as -78 ± 26 (patients, biologic-resistant Crohn's disease; intravenous infusion, 15 ng/kg/min, 24 weeks, unit not given, together with: biologic; reference: baseline).
Under “change from baseline”, `C[C@H]1C[C@H]2CSC(N)=N[C@@]2(c2nc(NC(=O)c3ccc(OC(F)F)cn3)cs2)CO1` is recorded as -61.5% (measured: CSF Aβx-40; healthy adults; 50 mg once daily, 14 days, day 15; reference: placebo-adjusted baseline).
For `PACAP`, the mRNA level was 125 ± 4.7% (qRT-PCR, GAPDH-normalised, measured: Bcl-2; APP V717I transgenic mouse, 6 months old, brain; intranasal, dose not given, 3 months; reference: vehicle-treated mice).

Excerpt of the above:
`CS/C(S)=N/CCCC[S+](C)[O-]` (racemic): “mRNA fold change” 6.82 (RT-PCR, measured: Gckr; rat, colon; oral gavage, 200 mg/kg, 96 h, dosed for four days; reference: vehicle).
The NMSS score of `Cc1ccc(NC(=O)c2ccc(CN3CCN(C)CC3)cc2)cc1Nc1nccc(-c2cncc(-c3oncc3C)c2)n1` is reported as 28.3 ± 19.5 (mild-to-moderate Parkinson's disease patients; oral, 50 mg once daily, day 7, on anti-Parkinson medication; direction not given).
